Published values pooled from the literature.
Lines come from different studies, so protocols differ. ± gives the spread as reported.
CPL: CPL (Toxoplasma gondii, UniProt Q6DMN0)
Sequence of UniProt P00747 (whole entry, unmodified, looked up): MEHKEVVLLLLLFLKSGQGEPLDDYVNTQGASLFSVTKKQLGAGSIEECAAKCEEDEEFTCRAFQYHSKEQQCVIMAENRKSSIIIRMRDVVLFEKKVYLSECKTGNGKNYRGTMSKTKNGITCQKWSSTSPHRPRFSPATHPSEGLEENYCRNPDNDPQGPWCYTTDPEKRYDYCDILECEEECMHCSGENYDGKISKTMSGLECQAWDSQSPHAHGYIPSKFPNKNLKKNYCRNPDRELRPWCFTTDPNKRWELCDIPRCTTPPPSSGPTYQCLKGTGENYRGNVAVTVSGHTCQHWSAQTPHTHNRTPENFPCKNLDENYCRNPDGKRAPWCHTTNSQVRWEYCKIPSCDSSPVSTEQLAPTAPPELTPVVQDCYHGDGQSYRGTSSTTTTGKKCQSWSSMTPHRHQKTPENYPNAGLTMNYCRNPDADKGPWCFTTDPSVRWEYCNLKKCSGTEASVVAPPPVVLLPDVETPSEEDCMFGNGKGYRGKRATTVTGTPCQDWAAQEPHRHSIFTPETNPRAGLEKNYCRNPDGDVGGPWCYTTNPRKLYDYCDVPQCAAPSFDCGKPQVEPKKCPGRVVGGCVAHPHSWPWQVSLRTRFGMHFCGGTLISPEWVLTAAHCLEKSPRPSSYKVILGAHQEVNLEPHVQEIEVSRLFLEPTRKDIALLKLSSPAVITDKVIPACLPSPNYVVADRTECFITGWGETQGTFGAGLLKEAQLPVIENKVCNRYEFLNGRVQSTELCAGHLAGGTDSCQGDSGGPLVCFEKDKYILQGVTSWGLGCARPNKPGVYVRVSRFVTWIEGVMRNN
Sequence of UniProt P33533 (whole entry, looked up): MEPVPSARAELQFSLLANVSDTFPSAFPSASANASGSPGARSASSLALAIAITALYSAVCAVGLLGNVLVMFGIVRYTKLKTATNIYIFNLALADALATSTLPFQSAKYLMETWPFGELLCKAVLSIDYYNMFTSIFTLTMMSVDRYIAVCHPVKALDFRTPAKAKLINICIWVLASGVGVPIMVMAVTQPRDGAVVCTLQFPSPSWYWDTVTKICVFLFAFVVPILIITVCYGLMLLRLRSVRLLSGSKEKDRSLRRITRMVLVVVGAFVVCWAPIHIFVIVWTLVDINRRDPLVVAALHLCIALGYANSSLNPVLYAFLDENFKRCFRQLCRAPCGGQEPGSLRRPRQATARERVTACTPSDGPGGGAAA
Sequence of UniProt Q9H008 (whole entry, looked up): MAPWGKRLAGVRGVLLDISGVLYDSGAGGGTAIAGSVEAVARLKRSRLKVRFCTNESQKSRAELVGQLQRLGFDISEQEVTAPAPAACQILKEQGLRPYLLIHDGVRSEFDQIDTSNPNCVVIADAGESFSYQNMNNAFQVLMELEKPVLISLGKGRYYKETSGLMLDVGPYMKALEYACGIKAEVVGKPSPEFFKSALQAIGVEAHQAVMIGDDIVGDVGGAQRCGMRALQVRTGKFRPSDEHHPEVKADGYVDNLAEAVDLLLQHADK
Sequence of UniProt P22303 (whole entry, looked up): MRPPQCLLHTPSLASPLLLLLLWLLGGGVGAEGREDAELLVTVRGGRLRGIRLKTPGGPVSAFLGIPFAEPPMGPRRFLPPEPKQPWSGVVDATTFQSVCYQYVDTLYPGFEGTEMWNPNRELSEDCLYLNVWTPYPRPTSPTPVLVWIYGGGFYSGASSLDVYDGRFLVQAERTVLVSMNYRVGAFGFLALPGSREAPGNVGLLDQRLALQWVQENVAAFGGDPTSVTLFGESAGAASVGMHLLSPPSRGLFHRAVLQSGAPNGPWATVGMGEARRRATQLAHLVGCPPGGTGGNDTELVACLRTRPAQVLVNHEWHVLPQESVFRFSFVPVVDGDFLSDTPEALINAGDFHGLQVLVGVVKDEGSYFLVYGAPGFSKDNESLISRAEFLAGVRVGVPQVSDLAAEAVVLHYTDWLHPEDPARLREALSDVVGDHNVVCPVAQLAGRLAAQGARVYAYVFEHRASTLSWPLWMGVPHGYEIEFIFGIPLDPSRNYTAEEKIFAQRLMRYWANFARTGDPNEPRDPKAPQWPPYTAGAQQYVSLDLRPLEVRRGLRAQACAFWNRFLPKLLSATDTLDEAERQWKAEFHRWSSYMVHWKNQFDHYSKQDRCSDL
Sequence of UniProt P84801 (whole entry, looked up): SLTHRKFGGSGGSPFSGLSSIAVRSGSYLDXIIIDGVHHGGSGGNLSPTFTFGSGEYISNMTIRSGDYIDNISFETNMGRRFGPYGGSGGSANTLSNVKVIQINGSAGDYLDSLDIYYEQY
Sequence of UniProt Q8IWQ3 (whole entry, looked up): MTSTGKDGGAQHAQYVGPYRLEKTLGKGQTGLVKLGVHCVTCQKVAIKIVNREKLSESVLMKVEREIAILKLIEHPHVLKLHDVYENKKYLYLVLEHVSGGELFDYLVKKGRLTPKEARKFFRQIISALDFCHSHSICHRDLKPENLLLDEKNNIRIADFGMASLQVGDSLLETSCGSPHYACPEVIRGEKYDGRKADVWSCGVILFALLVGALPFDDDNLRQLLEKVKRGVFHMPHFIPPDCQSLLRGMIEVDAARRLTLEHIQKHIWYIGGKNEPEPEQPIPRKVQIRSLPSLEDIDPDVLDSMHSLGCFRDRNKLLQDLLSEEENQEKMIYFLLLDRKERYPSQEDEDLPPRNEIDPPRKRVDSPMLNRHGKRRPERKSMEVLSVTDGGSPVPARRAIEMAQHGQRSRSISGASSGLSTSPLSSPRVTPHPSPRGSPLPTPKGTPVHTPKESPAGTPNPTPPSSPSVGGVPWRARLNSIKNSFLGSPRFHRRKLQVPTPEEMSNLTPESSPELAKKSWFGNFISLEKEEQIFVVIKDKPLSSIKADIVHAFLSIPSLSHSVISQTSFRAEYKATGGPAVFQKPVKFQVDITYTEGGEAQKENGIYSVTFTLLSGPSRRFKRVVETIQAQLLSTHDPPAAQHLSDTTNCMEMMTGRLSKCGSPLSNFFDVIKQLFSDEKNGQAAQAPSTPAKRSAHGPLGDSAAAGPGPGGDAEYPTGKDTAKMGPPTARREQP
Sequence of UniProt P10275 (whole entry, looked up): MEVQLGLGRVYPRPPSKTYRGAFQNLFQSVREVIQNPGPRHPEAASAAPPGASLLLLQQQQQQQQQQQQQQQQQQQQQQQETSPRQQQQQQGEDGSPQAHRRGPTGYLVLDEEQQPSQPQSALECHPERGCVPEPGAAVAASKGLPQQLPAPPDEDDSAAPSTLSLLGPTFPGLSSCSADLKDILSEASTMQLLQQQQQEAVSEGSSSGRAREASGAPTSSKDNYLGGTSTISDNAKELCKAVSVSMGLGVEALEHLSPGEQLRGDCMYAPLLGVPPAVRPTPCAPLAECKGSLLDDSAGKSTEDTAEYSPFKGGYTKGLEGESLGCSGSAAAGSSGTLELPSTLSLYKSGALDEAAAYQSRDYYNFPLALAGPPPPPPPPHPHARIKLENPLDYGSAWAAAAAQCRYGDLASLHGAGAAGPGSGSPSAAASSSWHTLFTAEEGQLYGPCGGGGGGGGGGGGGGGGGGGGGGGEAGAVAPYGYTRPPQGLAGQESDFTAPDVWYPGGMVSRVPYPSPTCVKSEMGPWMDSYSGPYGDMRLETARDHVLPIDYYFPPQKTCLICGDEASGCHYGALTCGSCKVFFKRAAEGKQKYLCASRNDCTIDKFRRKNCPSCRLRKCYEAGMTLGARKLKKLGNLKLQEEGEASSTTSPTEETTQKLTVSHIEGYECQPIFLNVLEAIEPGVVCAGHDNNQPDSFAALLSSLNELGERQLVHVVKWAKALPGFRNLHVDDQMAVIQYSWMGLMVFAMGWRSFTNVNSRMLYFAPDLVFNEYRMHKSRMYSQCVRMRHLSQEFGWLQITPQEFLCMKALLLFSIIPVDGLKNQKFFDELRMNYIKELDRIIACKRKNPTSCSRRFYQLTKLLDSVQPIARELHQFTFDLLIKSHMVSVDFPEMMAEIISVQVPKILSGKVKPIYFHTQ
Sequence of UniProt P06276 (whole entry, looked up): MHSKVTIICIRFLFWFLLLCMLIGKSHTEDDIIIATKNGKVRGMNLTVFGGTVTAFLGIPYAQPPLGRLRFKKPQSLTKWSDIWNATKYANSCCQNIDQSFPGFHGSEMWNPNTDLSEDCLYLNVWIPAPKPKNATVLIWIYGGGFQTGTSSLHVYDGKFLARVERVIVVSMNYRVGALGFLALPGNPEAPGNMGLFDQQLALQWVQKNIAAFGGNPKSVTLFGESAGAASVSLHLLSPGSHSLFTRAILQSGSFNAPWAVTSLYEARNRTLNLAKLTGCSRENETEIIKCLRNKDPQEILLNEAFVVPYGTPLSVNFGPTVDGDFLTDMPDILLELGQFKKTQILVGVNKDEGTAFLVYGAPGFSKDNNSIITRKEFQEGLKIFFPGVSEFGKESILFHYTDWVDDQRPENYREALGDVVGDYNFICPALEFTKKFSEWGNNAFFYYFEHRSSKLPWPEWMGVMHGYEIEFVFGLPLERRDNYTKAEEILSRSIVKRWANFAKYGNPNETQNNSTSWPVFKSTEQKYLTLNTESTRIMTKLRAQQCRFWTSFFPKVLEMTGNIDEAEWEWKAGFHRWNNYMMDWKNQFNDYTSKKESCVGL
Sequence of UniProt P21554 (whole entry, looked up): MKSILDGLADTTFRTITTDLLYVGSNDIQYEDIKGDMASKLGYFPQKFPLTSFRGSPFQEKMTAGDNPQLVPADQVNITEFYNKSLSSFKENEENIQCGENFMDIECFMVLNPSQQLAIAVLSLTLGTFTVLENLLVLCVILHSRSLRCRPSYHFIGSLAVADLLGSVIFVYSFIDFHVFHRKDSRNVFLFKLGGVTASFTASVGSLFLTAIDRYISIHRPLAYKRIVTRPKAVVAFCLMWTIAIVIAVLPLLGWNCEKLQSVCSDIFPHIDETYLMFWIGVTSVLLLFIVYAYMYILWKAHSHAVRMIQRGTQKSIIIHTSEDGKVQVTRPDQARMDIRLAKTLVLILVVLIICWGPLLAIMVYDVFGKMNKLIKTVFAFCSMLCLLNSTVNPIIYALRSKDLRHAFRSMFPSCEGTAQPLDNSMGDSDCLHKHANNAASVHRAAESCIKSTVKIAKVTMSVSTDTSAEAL

For `C[C@@H](O)[C@H](NC(=O)[C@H](CCCCN)NC(=O)CCC(=O)O)C(=O)NCC(=O)N[C@@H](CC(=O)O)C(=O)N[C@@H](CCC(=O)O)C(=O)N[C@@H](CCCCN)C(=O)N[C@@H](CCCCN)C(=O)NCC(=O)NCC(=O)N[C@@H](Cc1ccc(O)cc1)C(=O)NCC(=O)N[C@@H](CCCNC(=N)N)C(=O)N[C@@H](CCCCN)C(=O)N[C@@H](CCCCN)C(=O)N[C@@H](CCCNC(=N)N)C(=O)N[C@@H](CCCNC(=N)N)C(=O)N[C@@H](CCC(N)=O)C(=O)N[C@@H](CCCNC(=N)N)C(=O)N[C@@H](CCCNC(=N)N)C(=O)N[C@@H](CCCNC(=N)N)C(N)=O`, the Kd was 2.78 ± 0.02 µM (Heat shock protein HSP 90-alpha, with Cdc37 (HSP90AA1, Homo sapiens, UniProt P07900); Hsp90 Cdc37 binding, inhibitor, field-effect biosensor; 200 µM, pH 7.4, with: Cdc37 0.4 to 200 nM).
With `O=C(O)/C=C/c1ccc(O)cc1` the inhibition was 72.6% (Cholinesterase (BCHE, Homo sapiens, UniProt P06276); enzyme activity, inhibitor, Ellman; 500 µg/mL).
`NCCCCCO[C@H]1O[C@H](CO[C@H]2O[C@H](CO[C@H]3O[C@H](CO)[C@@H](O)[C@H](O)[C@@H]3O[C@H]3O[C@H](CO)[C@@H](O)[C@H](O)[C@@H]3O)[C@@H](O)[C@H](O[C@H]3O[C@H](CO)[C@@H](O)[C@H](O)[C@@H]3O[C@H]3O[C@H](CO)[C@@H](O)[C@H](O)[C@@H]3O)[C@@H]2O)[C@@H](O)[C@H](O[C@H]2O[C@H](CO)[C@@H](O)[C@H](O)[C@@H]2O[C@H]2O[C@H](CO)[C@@H](O)[C@H](O)[C@@H]2O[C@H]2O[C@H](CO)[C@@H](O)[C@H](O)[C@@H]2O)[C@@H]1O` gave a binding stoichiometry of 1.42 ± 0.47 (Griffithsin (Griffithsia sp., UniProt P84801); isothermal titration calorimetry; concentration not given, with: griffithsin).
For `CC(=O)NC(Cc1ccc(Br)c(Cl)c1)C(=O)N[C@@H](C)C(=O)N1CCC[C@H]1C(=O)N1CCC[C@H]1C(=O)N[C@@H](CCC(=O)O)C(=O)N[C@@H](Cc1c[nH]cn1)C(=O)N[C@@H](CO)C(=O)N[C@H](C(=O)N[C@@H](C)C(N)=O)[C@@H](C)OP(=O)(O)O` (some centres unmarked), the inhibition was 0.42% (BRSK2 (Homo sapiens, UniProt Q8IWQ3); enzyme activity, inhibitor; 10 µM).
The current density of `CCN(Cc1ccccc1)C(=O)CCc1nc(CN2CCN(C(=O)Cc3ccc(OC)c(OC)c3)CC2)no1` is reported as -74.6 ± 7.71 pA/pF (SCN9A (Homo sapiens, UniProt Q15858); sodium current, inhibitor, whole-cell patch clamp; HEK293 stably expressing NaV1.7; 1 µM, at -10 mV).
`N=C(N)NCCCC[C@H](N)C(=O)Nc1ccc2c(CC(N)=O)cc(=O)oc2c1` — result for “relative hydrolysis rate”: 100% (Aminopeptidase N (Neisseria meningitidis, UniProt Q9JYV4); substrate; 3 µM, pH 7.5; relative to: best substrate).
The selectivity ratio of `CC(C)CCN(Cc1ccccc1C(F)(F)F)c1nc(C#N)nc(N2CCOCC2)n1` is reported as 0.4 (CPL; enzyme activity, inhibitor; relative to: human over Toxoplasma IC50).
`C=C(C)C(=O)Oc1ccc(C(C)(C)c2ccc(OC(=O)C(=C)C)cc2)cc1`: “maximal effect concentration” 20 µM (Androgen receptor (AR, Homo sapiens, UniProt P10275); reporter gene, antagonist; CHO; with: 0.1 nM R1881).
The inhibition of `O=c1c(O)c(-c2cc(O)ccc2O)oc2cc(O)cc(O)c12` is reported as 63.4 ± 2.14% (ACHE (Homo sapiens, UniProt P22303); enzyme activity, inhibitor; 250 µg/mL).
`CCCCCCCCCCNC(=O)c1ccc(C[C@H](N)C(=O)N2Cc3ccccc3C[C@H]2C(=O)N[C@@H](Cc2ccccc2)C(=O)N[C@@H](Cc2ccccc2)C(=O)O)cc1` gave an EC50 of 0.000239 µM (OPRD1 (Homo sapiens, UniProt P41143); agonist; HEK293 cells expressing OPRD1).
`CC[C@H](C)[C@H](NC(=O)[C@@H](NC(=O)[C@H](CCCCN)NC(=O)[C@H](CO)NC(=O)CN)[C@@H](C)O)C(=O)N[C@@H](CCC(N)=O)C(=O)N[C@@H](CCC(=O)O)C(=O)N[C@@H](CCCCN)C(=O)N[C@@H](CCC(=O)O)C(=O)N[C@@H](CCC(N)=O)C(=O)N[C@@H](CCC(=O)O)C(=O)N[C@@H](CC(C)C)C(=O)N[C@@H](CCCCN)C(=O)N[C@@H](CC(N)=O)C(=O)N[C@@H](CC(C)C)C(=O)N[C@@H](CCCCN)C(=O)N[C@@H](CC(=O)O)C(=O)N[C@@H](CC(N)=O)C(=O)N[C@H](C(=O)N[C@@H](CCC(=O)O)C(=O)N[C@@H](CC(C)C)C(=O)N[C@@H](CCC(=O)O)C(=O)N[C@@H](CCCNC(=N)N)C(=O)N[C@@H](CC(C)C)C(=O)N[C@@H](CCCCN)C(=O)N[C@@H](CC(N)=O)C(=O)N[C@@H](CCC(=O)O)C(=O)N[C@@H](CCCNC(=N)N)C(=O)N[C@@H](Cc1c[nH]cn1)C(=O)N[C@@H](CC(=O)O)C(=O)N[C@@H](Cc1c[nH]cn1)C(=O)N[C@@H](CC(=O)O)C(=O)N[C@@H](CCC(=O)O)C(=O)N[C@@H](CCC(=O)O)C(=O)N[C@@H](C)C(=O)N[C@@H](CCC(=O)O)C(=O)N[C@@H](CCCNC(=N)N)C(=O)N[C@@H](CCCCN)C(=O)N[C@@H](C)C(=O)N[C@@H](CC(C)C)C(=O)N[C@@H](CCC(=O)O)C(=O)N[C@@H](CC(=O)O)C(=O)N[C@@H](CCCCN)C(=O)N[C@@H](CC(C)C)C(=O)N[C@@H](C)C(=O)N[C@@H](CC(=O)O)C(=O)N[C@@H](CCCCN)C(=O)N[C@@H](CCC(N)=O)C(=O)N[C@@H](CCC(=O)O)C(=O)N[C@@H](Cc1c[nH]cn1)C(=O)N[C@@H](CC(C)C)C(=O)N[C@@H](CC(=O)O)C(=O)NCC(=O)N[C@@H](C)C(=O)N[C@@H](CC(C)C)C(=O)N[C@@H](CCCNC(=N)N)C(=O)N[C@@H](Cc1ccc(O)cc1)C(=O)O)C(C)C` gave a koff of 0.154 ± 0.015 s⁻¹ (Plasminogen, kringle 2 domain (PLG, Homo sapiens, UniProt P00747, C188G/E240D/L256Y); SPR; pH 7.4, 25 °C, kringle 2 domain).
Under probe labelling, `NCCCCCCCCN1[C@H]2[C@H](O)[C@@H](O)[C@H](O[C@@H]3OC[C@@H](O)[C@H](O)[C@H]3O)C[C@H]21` (some centres unmarked) is recorded as “inhibited” (Probable endo-1,4-beta-xylanase C (xlnC, Aspergillus niger, UniProt C5J411); activity-based probe binding, competitive inhibitor, in-gel fluorescence; Aspergillus niger, xylan-induced secretome; concentration not given, band near 30 kDa, with: Cy5 xylobiose activity-based probe).
For `Nc1nc2c([C@@H]3O[C@@H]4COP(=O)(O)O[C@H]5[C@@H](O)[C@H](n6cnc7c(=O)[nH]c(N)nc76)O[C@@H]5COP(=O)(O)O[C@H]4[C@H]3O)snc2c(=O)[nH]1`, “association rate constant k1” read 1.85e+06 ± 70000 M⁻¹ s⁻¹ (rocR (Pseudomonas aeruginosa, UniProt Q9HX69); substrate, HPLC; 10 µM, with: 100 nM enzyme).
`CCCCn1c2ccccc2c2cc(C(=O)c3cccc4ccccc34)ccc21` has an Emax of 51.3% (CNR1 (Homo sapiens, UniProt P21554); cAMP inhibition, agonist, BRET; HEK293 expressing CNR1; with: forskolin; relative to: forskolin alone).
The kon of `CC(C)C[C@H](NC(=O)[C@H](CCC(=O)O)NC(=O)[C@H](C)NC(=O)[C@H](CCC(=O)O)NC(=O)[C@H](CCC(=O)O)NC(=O)[C@H](Cc1c[nH]cn1)NC(=O)[C@H](CCCNC(=N)N)NC(=O)[C@H](CCC(=O)O)NC(=O)[C@H](CC(N)=O)NC(=O)[C@H](CCCCN)NC(=O)[C@H](CC(C)C)NC(=O)[C@H](CCCNC(=N)N)NC(=O)[C@H](CCC(N)=O)NC(=O)[C@H](CC(C)C)NC(=O)[C@H](CCC(=O)O)NC(=O)[C@H](C)NC(=O)[C@H](C)NC(=O)[C@H](C)NC(=O)[C@@H](NC(=O)[C@H](CC(C)C)NC(=O)[C@H](CCCCN)NC(=O)[C@H](CCC(=O)O)NC(=O)[C@@H](NC(=O)[C@H](CO)NC(=O)CN)C(C)C)[C@@H](C)O)C(=O)N[C@@H](CCC(=O)O)C(=O)N[C@@H](CCCNC(=N)N)C(=O)N[C@@H](CC(C)C)C(=O)N[C@@H](CCCCN)C(=O)N[C@@H](CO)C(=O)N[C@@H](CCC(=O)O)C(=O)N[C@@H](Cc1ccc(O)cc1)C(=O)O` is reported as 126000 M⁻¹ s⁻¹ (Plasminogen (PLG, Homo sapiens, UniProt P00747, C188G/E240D/L256Y); binding, SPR; pH 7.4).
`N[C@H](Cc1ccccc1)P(=O)(O)O` gave a ΔΔG binding of -0.1 kcal/mol (PAL1 (Petroselinum crispum, UniProt P24481, Y110F); isothermal titration calorimetry; concentration not given; relative to: wild type minus Y110F).
The binding enthalpy of `CCOC(=O)/C(C#N)=C/c1cccc(C(N)=O)c1` is reported as -12 kcal/mol (Genome polyprotein, 3C protease (Human enterovirus D68, UniProt Q68T42, C1641Y/I1565V/I1594T/R1603K/Y1579H); ITC; enterovirus D68; concentration not given, 25 °C, with: DTT 10 mM).
The binding enthalpy of `CC[C@H](C)[C@H](NC(=O)[C@H](CC(N)=O)NC(=O)[C@H](CC(N)=O)NC(=O)[C@@H](N)CCCNC(N)=O)C(=O)N1C[C@@H](n2cc([C]34[CH]5[CH]6[CH]7[CH]3[Fe]6754389%10[CH]4[CH]3[CH]8[CH]9[CH]4%10)nn2)C[C@H]1C(=O)N[C@@H](Cc1csc2ccccc12)C(=O)N[C@@H](CO)C(N)=O` (some centres unmarked) is reported as -14.9 ± 7.5 kcal/mol (env (Human immunodeficiency virus type 1 group M subtype B, UniProt P35961); ITC; concentration not given, pH 7.4, 25 °C).
`Cc1ncsc1-c1ccc(CNC(=O)[C@@H]2C[C@@H](O)CN2C(=O)[C@@H](NC(=O)CCCCCCCCC(=O)N2CCN(c3ncc(-c4cc(NC(=O)c5ccc(F)cc5C(F)(F)F)c(N5C[C@@H](C)N(C)[C@@H](C)C5)cc4F)cn3)CC2)C(C)(C)C)cc1` gave a Dmax of 37% (WD repeat protein WDS (Spodoptera frugiperda, UniProt A0A2H1VC02); protein degradation, degrader, targeted LC-MS; Sf9).
`CC(=O)NCC(=O)N[C@@H](C)C(=O)N[C@@H](CCCCNP(=O)(O)O)C(=O)NCC(=O)NCC(N)=O` has an initial velocity of 2.72e-08 M/s (Phospholysine phosphohistidine inorganic pyrophosphate phosphatase (LHPP, Homo sapiens, UniProt Q9H008); substrate; 100 µM, pH 7.8).
`N#Cc1nc(N2CCOCC2)nc(N(Cc2ccc(F)cc2)CC2CCCOC2)n1` (centres unmarked) gave a selectivity ratio of 3.5 (CPL; enzyme activity, inhibitor; relative to: human over Toxoplasma IC50).
`CCCc1cc(Cc2ccccc2)cc2c1NCCC2NC(=O)C(N)Cc1c(C)cc(O)cc1C` (centres unmarked) gave a maximal stimulation of 36% (Oprd1 (Rattus norvegicus, UniProt P33533); GTPγS binding, agonist; C6 cells expressing DOR; relative to: DPDPE at 10 µM).
`CC(C)OC(=O)c1ccc(OC(=O)C2CCN(C(=O)OCc3ccccc3)CC2)cc1` gave an inhibitory concentration of < 1 µM (clpP (Staphylococcus aureus, UniProt Q2G036); enzyme activity, inhibitor).
